Experimental data collected from several papers.
± marks the error that the study gave.
TMPRSS11D: Transmembrane protease serine 11D (TMPRSS11D, Homo sapiens, UniProt O60235)
AGTR1: Type-1 angiotensin II receptor (AGTR1, Homo sapiens, UniProt P30556)
TMPRSS2: Transmembrane protease serine 2 (TMPRSS2, Homo sapiens, UniProt O15393)
FGFR1: Fibroblast growth factor receptor 1 (FGFR1, Homo sapiens, UniProt P11362)
PDEB1: Class 1 phosphodiesterase PDEB1 (PDEB1, Trypanosoma brucei, UniProt Q8WQX9)
Mycosin-1: Mycosin-1 (Mycolicibacterium thermoresistibile, UniProt G7CDQ2)
GP1 NS2B-NS3 protease: Genome polyprotein, NS2B-NS3 protease (GP1, West Nile virus, UniProt Q9Q6P4)

| SMILES | target | assay | test system | setting | scale | inhibition |
| --- | --- | --- | --- | --- | --- | --- |
| O=C(NC1CCNCC1)c1ccc2ccccc2c1O | TMPRSS11D | enzyme activity, fluorogenic substrate | – | 10 µM, added: Boc-VPR-AMC | – | < 20% |
| CCOC(=O)NS(=O)(=O)c1sc(CC(C)C)cc1-c1ccc2c(c1)CN(CC)C(=O)C2(C)C | AGTR1 | ligand displacement, radioligand | – | 10 µM, cell membranes | – | 15% |
| Cc1ccc2c(c1Br)C(O)(CC(=O)c1ccc3c(c1)OCO3)C(=O)N2 (stereo not shown) | Uncharacterized protein (Trypanosoma brucei brucei, UniProt Q386Q8) | enzyme activity, inhibitor, coupled colorimetric | Trypanosoma brucei | 100 µM | – | 65% |
| NCc1ccc(NC(=O)c2ccc(F)cc2O)cc1 | TMPRSS2 | enzyme activity, inhibitor | – | 10 µM, added: Boc-QAR-AMC | – | < 20% |
| COc1ccccc1-c1cc(C(=O)Nc2ccc(S(=O)(=O)Nc3cc(C)on3)cc2)c2ccccc2n1 | PPIA (Homo sapiens, UniProt P62937) | enzyme activity, inhibitor | – | 10 µM | – | 26.5% |
| FC1(F)Oc2ccc(Cc3c[nH]c4ncc(C(F)(F)F)cc34)cc2O1 | FGFR1 | enzyme activity, inhibitor | – | 1 µM | – | 40% |
| NCc1ccc(NC(=O)c2cc(Br)ccc2O)cc1 | TMPRSS2 | enzyme activity, inhibitor | – | 10 µM, added: Boc-QAR-AMC | – | < 20% |
| COC(=O)c1cccc(-c2cc(C)c3ncc(C(N)=O)c(N(C)c4cccc(OC)c4)c3c2)c1 | PDEB1 | enzyme activity, inhibitor | – | 10 µM | – | 59% |
| COc1cc(OC)cc(C(O)c2c[nH]c3ncc(C(F)(F)F)cc23)c1 (stereo not shown) | FGFR1 | enzyme activity, inhibitor | – | 1 µM | – | 89% |
| N[C@H]1CCCc2c1[nH]c1ccc(Cl)cc21 | SLC6A4 (Homo sapiens, UniProt P31645) | ligand displacement, radioligand | – | 10 µM | – | 89.2% |
| CC(=O)N[C@@H]1[C@@H](O)[C@H](O)[C@@H](CO)N[C@@H]1COP(=O)(O)OP(=O)(O)OC/C=C(/C)CC/C=C(\C)CCC=C(C)C | Peptidoglycan glycosyltransferase (Clostridioides difficile, UniProt Q189X7) | transglycosylase activity, HPLC | – | 500 µM, added: NBD-lipid II | – | 50% |
| O=C(C[C@@H](Cc1c[nH]c2ccccc12)n1nncc1CNS(=O)(=O)c1ccc(-c2ccccc2)s1)NO | ERAP2 (Homo sapiens, UniProt Q6P179) | enzyme activity, inhibitor, fluorescence | – | 100 µM | – | 67% |
| NS(=O)(=O)c1ccc(/N=N/c2ccc(O)nc2O)cc1 | Semaphorin-3C, with neuropilin-1 (SEMA3C, Homo sapiens, UniProt Q99985) | SEMA3C binding, inhibitor | – | 25 µM, added: SEMA3C | reference: DMSO | > 50% |
| Cc1cc2c(NC(=O)N[C@@H]3CC(C)(C)Oc4cc(C(F)(F)F)ccc43)cccc2cn1 | Trpv1 (Rattus norvegicus, UniProt O35433) | acid-evoked calcium influx, antagonist | HEK293, rat | 11.25 µM, pH 5 | – | 20.1 ± 8.5% |
| CC(C)Oc1cccc(NC(=O)CCCN2C(=O)c3ccccc3C2=O)c1 | Indole-3-acetic acid-amido synthetase GH3.8 (GH3.8, Oryza sativa subsp. japonica, UniProt Q0D4Z6) | enzyme activity, inhibitor | Oryza sativa | concentration not given | – | inhibited |
| Cc1cc(O)c(C=O)c2c1C(=O)Oc1c(CO)c(O)c3c(c1O2)C(O)OC3=O (stereo not shown) | PDE5A (Homo sapiens, UniProt O76074) | enzyme activity, inhibitor | – | 5 µg/mL | – | 60.4% |
| NCc1ccc(NC(=O)c2ccc(C(F)(F)F)cc2O)cc1 | TMPRSS11D | enzyme activity, fluorogenic substrate | – | 10 µM, added: Boc-VPR-AMC | – | < 20% |
| CCCCOC(=O)NS(=O)(=O)c1sc(CC(C)C)cc1-c1cccc(CN(Cc2cccnc2)C(C)=O)c1 | AGTR1 | ligand displacement, radioligand | – | 10 µM, cell membranes | – | 23% |
| O=C1N[C@@H](CO)C[C@H](O)c2ccccc21 (relative stereo) | PARP16 (Homo sapiens, UniProt Q8N5Y8) | enzyme activity, inhibitor | – | 10 µM | – | 95% |
| COc1cc(C(=O)NC2CCC(N3CCN(CC4CCC5(CCCC5)C4)CC3)CC2)c(F)cc1Nc1ncc2c(n1)N(C1CCCC1(F)F)CC(F)(F)C(=O)N2C (stereo not shown) | LYN (Homo sapiens, UniProt P07948) | cell-free assay, TR-FRET | – | 10 µM | – | 0.62% |
| NCc1ccc(NC(=O)c2cc3ccccc3[nH]2)cc1 | TMPRSS11D | enzyme activity, fluorogenic substrate | – | 10 µM, added: Boc-VPR-AMC | – | < 20% |
| CC(C)C1=CC23CCC4C(C)(C(=O)O)CCCC4(C)C2CC1C(C(=O)O)C3C(=O)O (stereo not shown) | Replication protein A 70 kDa DNA-binding subunit, DBD-F (RPA1, Homo sapiens, UniProt P27694) | ssDNA binding, EMSA | – | 300 to 1 µM, protein 2 µM | – | inhibited |
| C=C(C)c1cc(NNC(=N)N)c(C)cc1NNC(=N)N | Mycosin-1 | protease activity, inhibitor, quenched fluorescent peptide | – | 150 µM, added: 20 µM fluorogenic peptide substrate | reference: DMSO control | 71.5% |
| Cn1c2ccccc2c2cc(CNCCCn3ccnc3)ccc21 | DRD2 (Homo sapiens, UniProt P14416) | cell-free assay, inhibitor | – | 10 µM | – | 13.4% |
| CCc1nc2ccc(Cl)cn2c1C(=O)NC/C=C(\C)CC/C=C(\C)CCC=C(C)C | MT-CYB (Bos taurus, UniProt P00157) | complex III activity | bovine heart submitochondrial particles | 10 µM | – | 50% |

| SMILES | target | assay | test system | setting | scale | inhibition |
| --- | --- | --- | --- | --- | --- | --- |
| Cc1c(-c2c3c(N)n[nH]c(=O)c3nn2-c2ccccc2)oc2ccc(C(F)(F)F)cc12 | FGFR1 | enzyme activity, inhibitor, ELISA | – | 0.1 µM | – | 38% |
| Cc1ccc(C(=O)Nc2ccc(CN)cc2)c(O)c1 | Plasminogen (PLG, Homo sapiens, UniProt P00747) | enzyme activity, inhibitor | – | 10 µM | – | > 70% |
| COc1ccccc1CNC(=O)CCn1c(=O)[nH]c2ccsc2c1=O | Heat shock protein HSP 90-beta, N-terminal domain (HSP90AB1, Homo sapiens, UniProt P08238) | binding, fluorescence polarization | – | 10 µM, added: FITC-geldanamycin | – | no inhibition |
| OC(c1ccc(Cl)c(C(F)(F)F)c1)c1c[nH]c2ncc(C(F)(F)F)cc12 (stereo not shown) | FGFR1 | enzyme activity, inhibitor | – | 0.1 µM | – | 3% |
| Oc1c(C(Nc2nc3ccccc3s2)c2cccc(OCc3ccccc3)c2)ccc2cccnc12 (stereo not shown) | GP1 NS2B-NS3 protease | enzyme activity, inhibitor | – | 10 µM, 0.1% CHAPS, added: tetrapeptide substrate | – | 81.8 ± 1.12% |
| CNS(=O)(=O)c1cc([N+](=O)[O-])ccc1NCCC(C)(C)C | SLC12A2 (Homo sapiens, UniProt P55011) | chloride influx | HEK293 transfected with SLC12A2 | 10 µM | reference: DMSO | 17.7 ± 3.9% |
| CCOC(=O)NS(=O)(=O)c1sc(CC(C)C)cc1-c1ccc2c(c1)CCN(C(=O)OC)C2 | AGTR1 | ligand displacement, radioligand | – | 10 µM, cell membranes | – | 15% |
| N#Cc1c(NC(=O)CCl)sc2c1CCC(c1ccccc1)C2 (stereo not shown) | LDHA (Homo sapiens, UniProt P00338) | enzyme activity, inhibitor, fluorescence | – | 100 µg/mL | – | 24.9% |
| CC(C)=C1C=C2CCC3C(C)(C(=O)O)CCCC3(C)C2CC1 (stereo not shown) | RPA1 (Homo sapiens, UniProt P27694) | helix destabilization, EMSA dsDNA probe | – | 200 µM | – | no effect |
| Cc1cccc(O)c1C(=O)Nc1ccc(CN)cc1 | TMPRSS2 | enzyme activity, inhibitor | – | 10 µM, added: Boc-QAR-AMC | – | < 20% |
| O=C(Nc1cccnc1)c1ccccc1OCc1ccccc1 | SGMS2 (Homo sapiens, UniProt Q8NHU3) | enzyme activity, inhibitor | – | 1 µM | – | 29% |
| Cc1sc2c(c1C)C(c1ccc(Cl)cc1)=N[C@@H](CC(=O)NCCCCNC(=O)COc1cccc3c1C(=O)N(C1CCC(=O)NC1=O)C3=O)c1nnc(C)n1-2 (stereo partly shown) | von Hippel-Lindau disease tumor suppressor, with elongin B/C (VHL, Homo sapiens, UniProt P40337) | TR-FRET | – | 2.1 pM to 30 µM, 90 min | – | inactive |
| CCCCCCCCN(CCC(=O)Nc1ccccc1)C(=O)c1ccccc1 | Protein-S-isoprenylcysteine O-methyltransferase (Homo sapiens, UniProt O60725) | enzyme activity, inhibitor, hit selection screen | Sf9 membranes | 50 µM, added: biotin-farnesyl-L-cysteine | – | 80% |
| FC(F)(F)c1cccc(Cc2c[nH]c3ncc(C(F)(F)F)cc23)c1 | FGFR1 | enzyme activity, inhibitor | – | 0.1 µM | – | 10% |
| C/C(CC(=O)Nc1ccc([N+](=O)[O-])cc1)=N\NC(N)=O | Mycosin-1 | protease activity, inhibitor, quenched fluorescent peptide | – | 150 µM, added: 20 µM fluorogenic peptide substrate | reference: DMSO control | 57.3% |
| CO[C@@H]([C@@H](O)[C@H](O)C(=O)CO)[C@@H](C)O | 3-dehydroquinate synthase, chloroplastic (DHQS, Arabidopsis thaliana, UniProt Q8VYV7) | enzyme activity | – | concentration not given | – | no inhibition |
| OC(c1cccc(OC(F)(F)F)c1)c1c[nH]c2ncc(C(F)(F)F)cc12 (stereo not shown) | FGFR1 | enzyme activity, inhibitor | – | 0.1 µM | – | -5% |
| Oc1c(C(Nc2nccs2)c2cccc(OCc3ccccc3)c2)ccc2cccnc12 (stereo not shown) | GP1 NS2B-NS3 protease | enzyme activity, inhibitor | – | 10 µM, 0.1% CHAPS, added: tetrapeptide substrate | – | 72 ± 1.38% |
| OC(c1ccc(C(F)(F)F)cc1)c1c[nH]c2ncc(C(F)(F)F)cc12 (stereo not shown) | FGFR1 | enzyme activity, inhibitor | – | 1 µM | – | 25% |
| COC(=O)c1cc(C(=O)OC)cc(-c2cc(C)c3ncc(C(N)=O)c(Nc4cccc(OC)c4)c3c2)c1 | PDEB1 | enzyme activity, inhibitor | – | 10 µM | – | 50% |
| FC(F)(F)c1cnc2[nH]cc(Cc3ccc(OCc4ccccc4)cc3)c2c1 | FGFR1 | enzyme activity, inhibitor | – | 0.1 µM | – | -4% |
| O=C(c1ccncc1)N1N=C2/C(=C/c3ccc(F)cc3)CCCC2C1c1ccc(F)cc1 (stereo not shown) | PTGS2 (Homo sapiens, UniProt P35354) | enzyme activity | – | concentration not given | – | 70.3% |
| FC(F)(F)c1ccc(Cc2c[nH]c3ncc(C(F)(F)F)cc23)cc1 | FGFR1 | enzyme activity, inhibitor | – | 1 µM | – | 21% |
| Cc1ccc(O)c(C(=O)Nc2ccc(CN)cc2)c1 | TMPRSS11D | enzyme activity, inhibitor, fluorescence | – | 10 µM | – | 92% |

For quick reference, copied from above:
| SMILES | target | assay | test system | setting | scale | inhibition |
| --- | --- | --- | --- | --- | --- | --- |
| NCc1ccc(NC(=O)c2cc3ccccc3[nH]2)cc1 | TMPRSS11D | enzyme activity, fluorogenic substrate | – | 10 µM, added: Boc-VPR-AMC | – | < 20% |
| CCOC(=O)NS(=O)(=O)c1sc(CC(C)C)cc1-c1ccc2c(c1)CN(CC)C(=O)C2(C)C | AGTR1 | ligand displacement, radioligand | – | 10 µM, cell membranes | – | 15% |
| CC(=O)N[C@@H]1[C@@H](O)[C@H](O)[C@@H](CO)N[C@@H]1COP(=O)(O)OP(=O)(O)OC/C=C(/C)CC/C=C(\C)CCC=C(C)C | Peptidoglycan glycosyltransferase (Clostridioides difficile, UniProt Q189X7) | transglycosylase activity, HPLC | – | 500 µM, added: NBD-lipid II | – | 50% |
| Cc1cc2c(NC(=O)N[C@@H]3CC(C)(C)Oc4cc(C(F)(F)F)ccc43)cccc2cn1 | Trpv1 (Rattus norvegicus, UniProt O35433) | acid-evoked calcium influx, antagonist | HEK293, rat | 11.25 µM, pH 5 | – | 20.1 ± 8.5% |
